Assay results pooled from the literature.
Each line is one published result; not all experiments were run side by side. Numbers after ± are the reported error.

Compound	target or system	assay	system	setting	scale	measurement	result
N=C(N)NCCC[C@@H]1NC(=O)[C@H](CCCCNC(=O)CCC(NC(=S)Nc2ccc(CC3CN(CC(=O)O)CCN(CC(=O)O)CCN(CC(=O)O)CCN3CC(=O)O)cc2)C(=O)NCCCC[C@@H]2NC(=O)[C@@H](Cc3ccc(O)cc3)NC(=O)[C@H](CC(=O)O)NC(=O)CNC(=O)[C@H](CCCNC(=N)N)NC2=O)NC(=O)[C@@H](Cc2ccc(O)cc2)NC(=O)[C@H](CC(=O)O)NC(=O)CNC1=O (stereo partly drawn) [scandium-44 labelled]		ex vivo γ-counting	female athymic nude mice, U-87 MG xenograft, liver	intravenous, 4 h, with: cRGD 50 mg/kg blocking		tissue uptake	0.106 ± 0.027 %ID/g
c1ccc([C@H]2CCC[C@@]3(C2)OOC2(O3)C3CC4CC(C3)CC2C4)c(OCCN2CCOCC2)c1 (mixture of isomers)		metabolic stability	human, liver microsomes			half-life	4.9 min
CC[C@H](C)[C@H](NC(=O)[C@H](CO)NC(=O)[C@H](Cc1ccc(O)cc1)NC(=O)[C@H](Cc1ccc(O)cc1)NC(=O)[C@H](CC(N)=O)NC(=O)CNC(=O)[C@H](CO)NC(=O)[C@H](Cc1ccc(O)cc1)NC(=O)[C@H](CO)NC(=O)[C@H](CO)NC(=O)[C@H](CC(N)=O)NC(=O)COCCOCCNC(=O)CN1CCN(CC(=O)O)CCN(CC(=O)O)CCN(CC(=O)O)CC1)C(=O)N[C@@H](CC(C)C)C(N)=O [copper-64 labelled]		dynamic PET	tamoxifen-induced PDAC mouse model, pancreas	1.6 min, CLDN4-expressing tumours		maximum pancreas uptake	27.3 %IA/cc
CCN(CC)CCOc1ccc(-c2nnn(Cc3ccc(OC)cc3)c2N)cc1		metabolic stability	human, liver microsomes			half-life	162 min
CC(C)(C)C(=O)OCOP(=O)(OCOC(=O)C(C)(C)C)C1CCCN(O)C1=O (stereo not drawn)	KM12					GI50	443 nM
COCC12CCC(OC)C34C5CC6(O)C(OC)C(O)C(O)(C5C6OC(=O)c5ccccc5)C(C(OC)C13)C4N(C)C2 (stereo not drawn)			Sprague-Dawley rat, plasma	oral, dose not given, with NADES in PCW extract		half-life	501 ± 148 min
C#Cc1c(F)ccc2cc(O)cc(-c3ncc4c(N5CC6CCC(C5)N6C(=O)OC(C)OC(=O)[C@@H](N)C(C)C)nc(OC[C@@]56CCCN5C[C@H](F)C6)nc4c3F)c12 (stereo partly drawn)		metabolic stability	mouse, liver microsomes	1 µM, pH 7.4		half-life	2.15 min
CSCC[C@@H]1NC(=O)[C@H](C(C)C)NC(=O)[C@H](CCCNC(=N)N)NC(=O)CNC(=O)[C@@H]2CCCN2C(=O)[C@@H](NC(=O)CNC(=O)[C@H](CO)NC(=O)CNC(=O)[C@H](CO)NC(=S)Nc2ccc(C[C@H]3CN(CC(=O)O)CCN(CC(=O)O)CCN3CC(=O)O)cc2)CSSC[C@@H](C(N)=O)NC(=O)[C@@H]2CCCN2C(=O)CNC(=O)[C@H](CCC(=O)O)NC(=O)[C@H](CC(=O)O)NC(=O)[C@H](CC(=O)O)NC(=O)CNC(=O)[C@H](CC(C)C)NC(=O)[C@H](Cc2c[nH]cn2)NC(=O)[C@H](CC(C)C)NC(=O)CNC(=O)[C@H](Cc2c[nH]cn2)NC1=O [copper-64 labelled]		dynamic PET	CD rat, myocardial infarction model, fibrotic infarct myocardium	intravenous, 18.5 MBq, 15 to 60 min		half-life	29.3 ± 5.8 min
C#CCCCNC(=O)CC(Cc1ccc(F)cc1)NC(=O)C(Cc1ccc(Cl)cc1Cl)NC(=O)C(N)Cc1ccccc1C#N (stereo not drawn)		metabolic stability	CD-1 mouse, liver microsomes	1 µM		half-life	11 min
C#Cc1c(F)ccc2cc(O)cc(-c3ncc4c(N5CC6CCC(C5)N6C(=O)OC(C)OC(C)=O)nc(OC[C@@]56CCCN5C[C@H](F)C6)nc4c3F)c12 (stereo partly drawn)		metabolic stability	mouse, liver microsomes	1 µM, pH 7.4		half-life	0.56 min
CSCC[C@@H]1NC(=O)[C@H](C(C)C)NC(=O)[C@H](CCCNC(=N)N)NC(=O)[C@@H]2CCCN2C(=O)CNC(=O)[C@@H](NC(=O)CNC(=O)[C@H](CO)NC(=O)CNC(=O)[C@H](CO)NC(=S)Nc2ccc(C[C@H]3CN(CC(=O)O)CCN(CC(=O)O)CCN3CC(=O)O)cc2)CSSC[C@@H](C(N)=O)NC(=O)[C@@H]2CCCN2C(=O)CNC(=O)[C@H](CCC(=O)O)NC(=O)[C@H](CC(=O)O)NC(=O)[C@H](CC(=O)O)NC(=O)CNC(=O)[C@H](CC(C)C)NC(=O)[C@H](Cc2c[nH]cn2)NC(=O)[C@H](CC(C)C)NC(=O)CNC(=O)[C@H](Cc2c[nH]cn2)NC1=O [copper-64 labelled]		dynamic PET	CD rat, myocardial infarction model, remote myocardium	intravenous, 18.5 MBq, 15 to 60 min		half-life	24.3 ± 2.4 min
CCc1nnc(-c2c(OC)cc(-c3cnc4cc(-c5cnn(C)c5)ccn34)cc2OC)o1		metabolic stability	mouse, liver microsomes			half-life	> 149 min
COc1ccccc1-c1n[nH]c2nc(NC3CCN(C(=O)Cc4ccc(F)cc4F)CC3)ncc12		bead binding, competition bead pull-down, measured: LMJF.21.1090	Leishmania donovani axenic amastigote extract	10 µM	baseline: vehicle	relative abundance	0.95
CCN1CC2(COC)C(O)CC(OC)C34C5CC6(O)C(OC)C(O)C(O)(C5C6OC(=O)c5ccccc5)C(C(OC)C23)C14 (stereo not drawn)			Sprague-Dawley rat, plasma	oral, dose not given, with H in PCW extract		half-life	244 ± 55.5 min
CN(C)CCCNC(=O)C[C@H](Cc1ccc(F)cc1)NC(=O)[C@@H](Cc1ccc(Cl)cc1Cl)NC(=O)[C@H](N)Cc1ccccc1C#N		metabolic stability	CD-1 mouse, liver microsomes	1 µM		half-life	41 min
Cc1cc(-c2ccc3ccccc3c2)nnc1NCCN1CCN(C)CC1	Cytochrome P450 2C19 (CYP2C19, Homo sapiens, UniProt P33261)	substrate	recombinant enzyme	100 nM		half-life	> 60 min
CNC(=O)C[C@H](Cc1ccc(F)cc1)NC(=O)[C@@H](Cc1ccc(Cl)cc1Cl)NC(=O)[C@H](N)Cc1ccccc1C#N		metabolic stability	human, liver microsomes	1 µM		half-life	1 min
O=C1NC2(CC2)COc2ncc(F)cc2[C@H]2COCCN2c2ccn3ncc1c3n2			Sprague-Dawley rat, female, adrenals	oral, 10 mg/kg/day, 4 weeks, end of treatment		organ-to-body weight ratio	0.021 ± 0.004%

Some of these lines once more:
Compound	target or system	assay	system	setting	scale	measurement	result
CCc1nnc(-c2c(OC)cc(-c3cnc4cc(-c5cnn(C)c5)ccn34)cc2OC)o1		metabolic stability	mouse, liver microsomes			half-life	> 149 min
CC(C)(C)C(=O)OCOP(=O)(OCOC(=O)C(C)(C)C)C1CCCN(O)C1=O (stereo not drawn)	KM12					GI50	443 nM
